{"data": "Published values pooled from the literature", "note": "Each line is one published result; not all experiments were run side by side. ± marks the error that the study gave."}
{"Structure (SMILES)": "CSCC[C@H](NC(=O)CNC(=O)[C@H](CCCCN)NC(=O)[C@H](CC(C)C)NC(=O)[C@@H]1CCCN1C(=O)[C@H](CO)NC(=O)[C@H](Cc1c[nH]cn1)NC(=O)[C@H](Cc1c[nH]c2ccccc12)NC(=O)[C@H](CCCNC(=N)N)NC(=O)[C@H](CC(C)C)NC(=O)[C@H](CCCNC(=N)N)NC(=O)[C@H](Cc1c[nH]c2ccccc12)NC(=O)[C@H](CS)NC(=O)CCCCCNC(=O)CN1CCN(CC(=O)O)CCN(CC(=O)O)CCN(CC(=O)O)CC1)C(=O)O [copper-64 labelled]", "test": "ex vivo biodistribution", "system": "BALB/c nude mice, kidney", "conditions": "intravenous, dose not given, 18 h, Huh-7 tumour-bearing", "tissue uptake": "12.1 %ID/g"}
{"Structure (SMILES)": "CN1Cc2cc(Cl)ccc2-n2c(nnc2C2CCN(c3cccc([18F])n3)CC2)C1", "system": "C57BL/6 mouse male, pancreas", "conditions": "intravenous, 3.7 MBq, 5 min", "tissue uptake": "8.61 ± 1.76 %ID/g"}
{"Structure (SMILES)": "CC[C@H](C)[C@H](NC(=O)[C@H](CCCCN)NC(=O)CNC(=O)[C@H](CC(C)C)NC(=O)[C@H](Cc1ccccc1)NC(=O)[C@H](CCCCN)NC(=O)[C@H](CO)NC(=O)[C@H](Cc1ccccc1)NC(=O)[C@H](Cc1c[nH]c2ccccc12)NC(=O)[C@H](CCC(N)=O)NC(=O)[C@@H](NC(=O)[C@H](Cc1ccccc1)NC(=O)CCCCCNC(=O)CN1CCN(CC(=O)O)CCN(CC(=O)O)CCN(CC(=O)O)CC1)C(C)C)C(=O)N[C@@H](CCC(=O)O)C(=O)N1CCC[C@H]1C(=O)N[C@@H](CC(=O)O)C(=O)N[C@H](C(=O)N[C@@H](CO)C(=O)N[C@@H](CCC(N)=O)C(=O)N[C@H](C(=O)N[C@@H](CCC(N)=O)C(=O)N[C@@H](CC(=O)O)C(=O)N1CCC[C@H]1C(=O)N[C@@H](CC(N)=O)C(=O)N[C@@H](CC(=O)O)C(=O)N[C@@H](CCC(N)=O)C(=O)N[C@@H](Cc1ccc(O)cc1)C(=O)N[C@@H](CCC(=O)O)C(=O)N1CCC[C@H]1C(=O)N[C@@H](Cc1ccccc1)C(=O)O)C(C)C)C(C)C [copper-64 labelled]", "system": "C57BL/6 mice, bone", "conditions": "with: LPS 0.1 mg/kg intratracheal", "tissue uptake": "0.5 ± 0.1 %ID/g"}
{"Structure (SMILES)": "C[C@H](O)[C@@H](NC(=O)[C@H]1CCCN1C(=O)[C@@H](CCCCN)NC(=O)[C@@H](CO)NC(=O)[C@@H](Cc1ccc(O)cc1)NC(=O)[C@@H](CC(N)=O)NC(=O)CCOCCOCCOCCNC(=O)CN1CCN(CC(=O)O)CCN(CC(=O)O)CCN(CC(=O)O)CC1)C(=O)N[C@H](CC(=O)O)C(=O)N[C@H](CCCNC(=N)N)C(=O)N[C@H](CCC(N)=O)C(=O)N[C@H](Cc1ccc(O)cc1)C(=O)N[C@H](Cc1c[nH]cn1)C(=O)N[C@H](Cc1ccccc1)C(N)=O [copper-64 labelled]", "system": "C57BL/6J mice, lung", "conditions": "intravenous, 1.85 MBq, 0.3333 h, radiolabelled", "tissue uptake": "1.78 ± 0.29 %ID/g"}
{"Structure (SMILES)": "CCCC[C@H]1C(=O)N(C)[C@@H](CCCC)C(=O)N[C@@H](CCCNC(=O)CN2CCN(CC(=O)O)CCN(CC(=O)O)CCN(CC(=O)O)CC2)C(=O)N[C@H](C(=O)NCC(N)=O)CSCC(=O)N[C@@H](Cc2ccc(O)cc2)C(=O)N(C)[C@@H](C)C(=O)N[C@@H](CC(N)=O)C(=O)N2CCC[C@H]2C(=O)N[C@@H](Cc2c[nH]cn2)C(=O)N[C@@H](CC(C)C)C(=O)N(C)CC(=O)N[C@@H](Cc2c[nH]c3ccccc23)C(=O)N[C@@H](CO)C(=O)N[C@@H](Cc2c[nH]c3ccccc23)C(=O)N1C [gallium-68 labelled]", "system": "NOD/SCID mice with CHO-hPD-L1 xenograft, bone", "conditions": "120 min post injection", "tissue uptake": "2.82 ± 1.37 %ID/g"}
{"Structure (SMILES)": "CC(C)C[C@@H](NC(=O)[C@@H](CCCNC(=N)N)NC(=O)[C@@H](Cc1c[nH]cn1)NC(=O)[C@@H](Cc1c[nH]c2ccccc12)NC(=O)[C@@H](Cc1c[nH]cn1)NC(=O)[C@@H](Cc1ccccc1)NC(=O)[C@H](NC(=O)[C@@H](Cc1ccc(O)cc1)NC(=O)CNC(=O)CNC(=O)CCOCCOCCOCCNC(=O)CN1CCN(CC(=O)O)CCN(CC(=O)O)CC1)[C@H](C)O)C(=O)N[C@H](CC(N)=O)C(=O)N1CCC[C@@H]1C(=O)O [gallium-68 labelled]", "system": "C57BL/6 mice, male, bone", "conditions": "intravenous, 1.85 MBq, 60 min, with: blocking antibody", "tissue uptake": "0.91 ± 0.31 %ID/g"}
{"Structure (SMILES)": "CCOP(=O)(CNC(=O)CN1CCN(CC(=O)NCP(=O)(OCC)OCC)CCN(CC(=O)NCP(=O)(OCC)OCC)CCN(CC(=O)NCP(=O)(OCC)OCC)CC1)OCC.[177Lu+3]", "system": "Sprague-Dawley rat, muscle", "conditions": "intravenous (tail vein), dose not given, 2 h", "tissue uptake": "0.018 ± 0.008 % injected dose/g"}
{"Structure (SMILES)": "Cc1ccccc1-c1ccc(-c2nc(-c3ccc(CN(C)CCCC(=O)O)c([18F])c3)no2)cc1C(F)(F)F", "system": "Sprague Dawley rats, male, fat", "conditions": "60 min", "tissue uptake": "0.06 ± 0.03 %ID/g"}
{"Structure (SMILES)": "CC[C@H](C)[C@H](NC(=O)[C@H](CCCNC(=N)N)NC(=O)[C@H](CCCCN)NC(=O)[C@H](Cc1ccc(O)cc1)NC(=O)[C@H](CC(=O)O)NC(=O)[C@H](C)NC(=O)CNC(=O)CCOCCOCCOCCNC(=O)CN1CCN(CC(=O)O)CCN(CC(=O)O)CCN(CC(=O)O)CC1)C(=O)N[C@H](C(=O)N[C@H](C(=O)N[C@@H](CCCCN)C(=O)N[C@H](C(=O)N[C@@H](CC(N)=O)C(N)=O)C(C)C)C(C)C)[C@@H](C)O [copper-64 labelled]", "test": "ex vivo gamma counting", "system": "C57BL/6J male mice, B16-F10 tumour, heart", "conditions": "intravenous, 1.85 MBq, 100 min", "tissue uptake": "0.664 ± 0.042 %ID/g"}
